# Measurements from different studies.
# Compare with care: the assays were run in different laboratories. “And” joins repeats or separate records; there may be more than shown.
# B1: human IGBP1; sequence looked up; chain AAEDELQLPRLPELFETGRQLLDEVEVATEPAGSRIVQEKVFKGLDLLEKAAEMLSQLDLFSRNEDLEEIASTDLKYLLVPAFQGALTMKQVNPSKRLDHLQRAREHFINYLTQCHCYHVAEFELPKTMNNSAENHTANSSMAYPSLVAMASQRQAKIQRYKQKKELEHRLSAMKSAVESGQADDERVREYYLLHLQRWIDISLEEIESIDQEIKILRERDSSREASTSNSSRQERPPVKPFILTRNMAQAKVFGAGYPSLPTMTVSDWYEQHRKYGALPDQGIAKAAPEEFRKAAQQQEEQEEKEEEDDEQTLHRAREWDDWKDTHPRGYGNRQNMG
# B2: human CDK4; sequence looked up; chain ATSRYEPVAEIGVGAYGTVYKARDPHSGHFVALKSVRVPNGGGGGGGLPISTVREVALLRRLEAFEHPNVVRLMDVCATSRTDREIKVTLVFEHVDQDLRTYLDKAPPPGLPAETIKDLMRQFLRGLDFLHANCIVHRDLKPENILVTSGGTVKLADFGLARIYSYQMALTPVVVTLWYRAPEVLLQSTYATPVDMWSVGCIFAEMFRRKPLFCGNSEADQLGKIFDLIGLPPEDDWPRDVSLPRGAFPPRGPRPVQSVVPEMEESGAQLLLEMLTFNPHKRISAFRALQHSYLHKDEGNPE
# B3: human hnRNP C; sequence looked up; chain ASNVTNKTDPRSMNSRVFIGNLNTLVVKKSDVEAIFSKYGKIVGCSVHKGFAFVQYVNERNARAAVAGEDGRMIAGQVLDINLAAEPKVNRGKAGVKRSAAEMYGSVTEHPSPSPLLSSSFDLDYDFQRDYYDRMYSYPARVPPPPPIARAVVPSKRQRVSGNTSRRGKSGFNSKSGQRGSSKSGKLKGDDLQAIKKELTQIKQKVDSLLENLEKIEKEQSKQAVEMKNDKSEEEQSSSSVKKDETNVKMESEGGADDSAEEGDLLDDDDNEDRGDDQLELIKDDEKEAEEGEDDRDSANGEDDS
# B4: human ILK; sequence looked up; chain MDDIFTQCREGNAVAVRLWLDNTENDLNQGDDHGFSPLHWACREGRSAVVEMLIMRGARINVMNRGDDTPLHLAASHGHRDIVQKLLQYKADINAVNEHGNVPLHYACFWGQDQVAEDLVANGALVSICNKYGEMPVDKAKAPLRELLRERAEKMGQNLNRIPYKDTFWKGTTRTRPRNGTLNKHSGIDFKQLNFLTKLNENHSGELWKGRWQGNDIVVKVLKVRDWSTRKSRDFNEECPRLRIFSHPNVLPVLGACQSPPAPHPTLITHWMPYGSLYNVLHEGTNFVVDQSQAVKFALDMARGMAFLHTLEPLIPRHALNSRSVMIDEDMTARISMADVKFSFQCPGRMYAPAWVAPEALQKKPEDTNRRSADMWSFAVLLWELVTREVPFADLSNMEIGMKVALEGLRPTIPPGISPHVCKLMKICMNEDPAKRPKFDMIVPILEKMQDK
# Sequence of UniProt Q64663 (whole entry, unmodified, looked up): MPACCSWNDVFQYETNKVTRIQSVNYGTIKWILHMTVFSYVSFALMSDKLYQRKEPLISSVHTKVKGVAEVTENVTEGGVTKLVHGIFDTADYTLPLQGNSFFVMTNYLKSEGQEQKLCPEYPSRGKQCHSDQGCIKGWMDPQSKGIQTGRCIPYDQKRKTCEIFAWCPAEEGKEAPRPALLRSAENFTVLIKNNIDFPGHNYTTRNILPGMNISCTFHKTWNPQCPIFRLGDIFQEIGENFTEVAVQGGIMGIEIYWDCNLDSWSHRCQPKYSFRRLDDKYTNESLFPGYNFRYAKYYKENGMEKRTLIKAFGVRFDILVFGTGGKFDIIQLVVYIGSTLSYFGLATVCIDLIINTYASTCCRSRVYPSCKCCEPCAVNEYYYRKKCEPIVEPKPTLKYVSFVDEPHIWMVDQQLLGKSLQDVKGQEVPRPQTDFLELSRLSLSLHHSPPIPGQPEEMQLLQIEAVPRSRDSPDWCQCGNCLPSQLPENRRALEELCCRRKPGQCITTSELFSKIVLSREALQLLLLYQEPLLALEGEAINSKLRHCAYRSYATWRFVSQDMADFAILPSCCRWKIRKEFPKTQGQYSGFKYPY
Molecule,target or system,test,system,setting,how to read,quantity,value
GGWVEKETYY,"construct, MBP fusion, human SCRIB, PDZ 3-4",surface plasmon resonance,peptide,concentration not given,higher = stronger binding,normalised SPR binding response,3.5 normalised RU
B1 (human IGBP1),PP6C (human),"co-immunoprecipitation, IP-MS",CYB5R4 knockout cells,concentration not given,baseline: CYB5R4 knockout over parental,log2 fold change,-0.0761
"FGA (Homo sapiens, UniProt P02671)","AFDN (Homo sapiens, UniProt P55196)",cross-linking MS,,added: DSSO,,cross-linked residues,K432 to K119
Peginesatide,UT7/EPO,"RT-qPCR, measured: AREG",,"concentration not given, 90 min",baseline: vehicle,mRNA fold induction,2.7 fold
Triton X-100,HBV core protein Cp149 dimer,solution NMR,,"4 molar equivalents, pH 7.5, 295 K, average over eight residues",baseline: apo Cp149 dimer,average chemical shift perturbation,0.143 ppm
caspofungin,,,"adult ICU patients, mITT, serum","dose not given, Baseline",,alkaline phosphatase,148 U/L
Teicoplanin,,measured: stability,human serum,"1 days, room temperature, high QC",,recovery,99.5%
Relaxin,RXFP1 signalosome,"co-immunoprecipitation, measured: AC2, AKAP79","HEK293 expressing FLAG-RXFP1, AC2-HA","10 nM, 5 min",,decrease in association,60%
α-terpineol,Nrf2,"Nrf2 induction, inducer",,,baseline: control,fold induction,1.15 fold
BzATP,"P2X purinoceptor 7 (P2rx7, Rattus norvegicus, UniProt Q64663, Q143A)","ion current, agonist, two-electrode voltage clamp",Xenopus oocytes,1.2 µM,,normalized current,0.075 and 0.04 and 0.024
"phosphatidylinositol 4,5-bisphosphate",adenosine A2A receptor thermostabilised,equilibrium dialysis LC-MS,,concentration not given,baseline: no protein,log2 fold change,0.118
VVVGASGVGK,HLA-A*11:01 peptide-β2M single-chain trimer,"western blot, measured: pMHC-I","peptide, 293T cells","6 h, unit not given, added: 100 µg/mL cycloheximide",baseline: time zero,remaining protein,0.831 and 0.838 and 0.898
Twinfilin-1 (human),PP6C (human),"co-immunoprecipitation, IP-MS",CYB5R4 knockout cells,concentration not given,baseline: CYB5R4 knockout over parental,log2 fold change,0.32
colistin,Pseudomonas aeruginosa,,clinical isolate RKI 359/11,,,MIC,≤ 1 µg/mL
GSGAGPETLV,"construct, MBP fusion, human SCRIB, PDZ 3-4",automated holdup,"peptide, purified PDZ protein","concentration not given, unit not given","baseline: biotin control resin, higher = stronger binding",binding intensity,0.257
B2 (human CDK4),PP6C (human),"co-immunoprecipitation, IP-MS",CYB5R4 knockout cells,concentration not given,baseline: CYB5R4 knockout over parental,log2 fold change,-0.66
human ME2 R70K,,"enzyme activity, activator, NADH absorbance",recombinant enzyme,"range over 0 to 5 mM, pH 7.4",baseline: wild type,activation fold,1.3
B3 (human hnRNP C),PP6C (human),"co-immunoprecipitation, IP-MS",CYB5R4 knockout cells,concentration not given,baseline: CYB5R4 knockout over parental,log2 fold change,-0.4
QDEKVKESYV,"construct, MBP fusion, human SCRIB, PDZ 3-4",automated holdup,"peptide, crude extract","concentration not given, corrected by standard peak, unit not given","baseline: biotin control resin, higher = stronger binding",binding intensity,0.531
"FNA / CGLSGLGVA-NH2 ([18F]FNA-labelled, C-amide)",,gamma counting,"peptide, glioblastoma mice, skull bone","60 min, added: CooP blocking, 500-fold excess",,tissue uptake,0.35 %ID/g
GEMVGQARILAQATSDLVNAIKDA,vinculin head domain Vd1,"complex rupture, AFM single-molecule force spectroscopy",peptide,"single traces, C-terminal pulling, 800 nm/s",,mean rupture force,61.5 pN
GSGAGKETRV,"construct, MBP fusion, human SCRIB, PDZ 3-4",surface plasmon resonance,peptide,concentration not given,higher = stronger binding,normalised SPR binding response,24.3 normalised RU
B4 (human ILK),PP6C (human),"co-immunoprecipitation, IP-MS",CYB5R4 knockout cells,concentration not given,baseline: CYB5R4 knockout over parental,log2 fold change,-1.6
GSGAGQITKV,"construct, MBP fusion, human SCRIB, PDZ 3-4",automated holdup,"peptide, purified PDZ protein","concentration not given, unit not given","baseline: biotin control resin, higher = stronger binding",binding intensity,-0.142
VVVGACGVGK,HLA-A*11:01 peptide-β2M single-chain trimer,"western blot, measured: pMHC-I","peptide, 293T cells","6 h, unit not given, added: 100 µg/mL cycloheximide",baseline: time zero,remaining protein,0.856 and 0.875 and 0.863
GSGAGKESYV,"construct, MBP fusion, human SCRIB, PDZ 3-4",automated holdup,"peptide, crude extract","concentration not given, corrected by standard peak, unit not given","baseline: biotin control resin, higher = stronger binding",binding intensity,0.311
durvalumab,,,"human cancer patients, plasma","intravenous, 1500 mg, cycle 4 day 1, added: adavosertib 175 mg twice daily",,Ctrough geometric mean,63.8 µg/mL

# Some of these lines once more:
Molecule,target or system,test,system,setting,how to read,quantity,value
"FGA (Homo sapiens, UniProt P02671)","AFDN (Homo sapiens, UniProt P55196)",cross-linking MS,,added: DSSO,,cross-linked residues,K432 to K119
Peginesatide,UT7/EPO,"RT-qPCR, measured: AREG",,"concentration not given, 90 min",baseline: vehicle,mRNA fold induction,2.7 fold
